Assay results from different studies.
Parts stem from different laboratories: compare values within a part only.
Chain of UniProt O75385 (whole entry, looked up): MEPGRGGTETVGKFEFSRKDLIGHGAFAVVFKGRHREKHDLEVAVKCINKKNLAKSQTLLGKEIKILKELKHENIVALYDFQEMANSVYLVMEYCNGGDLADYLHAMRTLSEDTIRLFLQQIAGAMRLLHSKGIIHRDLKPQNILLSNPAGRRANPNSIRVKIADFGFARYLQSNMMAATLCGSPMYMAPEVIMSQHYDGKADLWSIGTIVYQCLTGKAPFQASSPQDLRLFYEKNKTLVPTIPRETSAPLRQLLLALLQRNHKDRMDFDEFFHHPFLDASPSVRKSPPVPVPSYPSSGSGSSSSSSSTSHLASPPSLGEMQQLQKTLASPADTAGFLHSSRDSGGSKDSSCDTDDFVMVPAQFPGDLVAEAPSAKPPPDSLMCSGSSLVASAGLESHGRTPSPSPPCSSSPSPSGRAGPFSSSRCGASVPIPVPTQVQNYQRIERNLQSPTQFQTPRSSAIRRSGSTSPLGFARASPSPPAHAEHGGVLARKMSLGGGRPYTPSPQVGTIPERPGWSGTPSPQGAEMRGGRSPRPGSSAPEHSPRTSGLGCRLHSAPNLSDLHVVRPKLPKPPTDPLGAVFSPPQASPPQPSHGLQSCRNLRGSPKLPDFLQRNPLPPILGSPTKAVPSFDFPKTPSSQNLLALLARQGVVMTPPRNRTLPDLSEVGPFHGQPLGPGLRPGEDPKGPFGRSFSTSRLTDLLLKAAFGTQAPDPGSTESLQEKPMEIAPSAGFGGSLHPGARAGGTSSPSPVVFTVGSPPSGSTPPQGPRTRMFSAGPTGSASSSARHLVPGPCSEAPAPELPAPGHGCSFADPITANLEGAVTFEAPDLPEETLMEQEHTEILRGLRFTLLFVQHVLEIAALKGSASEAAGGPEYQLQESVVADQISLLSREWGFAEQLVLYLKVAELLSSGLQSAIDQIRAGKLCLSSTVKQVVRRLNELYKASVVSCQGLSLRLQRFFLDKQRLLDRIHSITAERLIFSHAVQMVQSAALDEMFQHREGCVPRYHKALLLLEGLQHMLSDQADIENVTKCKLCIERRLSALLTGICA
Chain of UniProt Q96RR4 (whole entry, looked up): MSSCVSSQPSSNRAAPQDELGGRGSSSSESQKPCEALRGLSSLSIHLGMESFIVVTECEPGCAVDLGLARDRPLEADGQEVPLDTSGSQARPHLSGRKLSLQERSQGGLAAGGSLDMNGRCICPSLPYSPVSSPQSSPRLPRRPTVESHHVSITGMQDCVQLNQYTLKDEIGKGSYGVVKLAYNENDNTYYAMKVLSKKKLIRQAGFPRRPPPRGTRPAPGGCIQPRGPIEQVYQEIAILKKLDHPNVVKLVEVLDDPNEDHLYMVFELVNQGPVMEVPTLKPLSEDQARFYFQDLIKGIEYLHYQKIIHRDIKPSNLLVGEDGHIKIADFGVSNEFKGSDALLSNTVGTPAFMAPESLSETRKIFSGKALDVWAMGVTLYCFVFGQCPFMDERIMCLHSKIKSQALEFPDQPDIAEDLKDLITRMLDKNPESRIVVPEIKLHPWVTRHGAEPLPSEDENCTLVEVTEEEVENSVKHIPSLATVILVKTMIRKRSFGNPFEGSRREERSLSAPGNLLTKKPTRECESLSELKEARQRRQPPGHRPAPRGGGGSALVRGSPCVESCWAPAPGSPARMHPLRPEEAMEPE
Chain of UniProt O75116 (whole entry, looked up): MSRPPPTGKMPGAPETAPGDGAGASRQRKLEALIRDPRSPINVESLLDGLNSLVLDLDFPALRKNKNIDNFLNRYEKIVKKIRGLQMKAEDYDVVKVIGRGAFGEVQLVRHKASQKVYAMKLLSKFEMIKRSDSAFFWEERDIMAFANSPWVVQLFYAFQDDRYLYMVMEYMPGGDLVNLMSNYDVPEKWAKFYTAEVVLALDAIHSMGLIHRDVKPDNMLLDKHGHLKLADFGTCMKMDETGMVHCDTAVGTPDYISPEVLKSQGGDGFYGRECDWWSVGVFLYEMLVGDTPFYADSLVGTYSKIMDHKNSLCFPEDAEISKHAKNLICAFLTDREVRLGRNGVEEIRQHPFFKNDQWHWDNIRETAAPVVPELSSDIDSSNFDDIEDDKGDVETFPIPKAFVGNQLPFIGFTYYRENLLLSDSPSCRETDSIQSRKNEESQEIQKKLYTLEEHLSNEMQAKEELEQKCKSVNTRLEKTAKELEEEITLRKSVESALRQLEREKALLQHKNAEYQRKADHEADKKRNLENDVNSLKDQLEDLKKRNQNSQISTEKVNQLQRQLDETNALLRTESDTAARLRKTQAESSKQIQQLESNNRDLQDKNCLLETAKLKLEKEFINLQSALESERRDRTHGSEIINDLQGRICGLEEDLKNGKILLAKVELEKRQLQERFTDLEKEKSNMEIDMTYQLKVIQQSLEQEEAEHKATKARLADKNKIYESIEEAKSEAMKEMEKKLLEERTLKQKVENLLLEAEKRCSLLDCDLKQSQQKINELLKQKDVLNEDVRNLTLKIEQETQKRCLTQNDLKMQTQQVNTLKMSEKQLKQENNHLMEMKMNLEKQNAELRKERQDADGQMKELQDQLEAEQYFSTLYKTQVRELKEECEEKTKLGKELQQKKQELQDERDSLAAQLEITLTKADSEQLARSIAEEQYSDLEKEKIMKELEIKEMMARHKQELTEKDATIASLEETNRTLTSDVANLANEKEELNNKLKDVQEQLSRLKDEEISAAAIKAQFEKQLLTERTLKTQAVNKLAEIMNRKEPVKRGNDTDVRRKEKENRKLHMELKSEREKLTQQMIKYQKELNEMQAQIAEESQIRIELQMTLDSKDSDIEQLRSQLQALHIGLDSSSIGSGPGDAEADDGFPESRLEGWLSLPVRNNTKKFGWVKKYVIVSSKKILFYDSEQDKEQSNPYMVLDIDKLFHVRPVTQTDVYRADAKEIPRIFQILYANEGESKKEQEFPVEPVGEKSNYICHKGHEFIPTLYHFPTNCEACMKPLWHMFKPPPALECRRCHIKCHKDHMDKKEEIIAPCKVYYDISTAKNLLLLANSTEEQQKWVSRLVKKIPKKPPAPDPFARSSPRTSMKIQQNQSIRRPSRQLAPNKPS
Chain of UniProt O75582 (whole entry, looked up): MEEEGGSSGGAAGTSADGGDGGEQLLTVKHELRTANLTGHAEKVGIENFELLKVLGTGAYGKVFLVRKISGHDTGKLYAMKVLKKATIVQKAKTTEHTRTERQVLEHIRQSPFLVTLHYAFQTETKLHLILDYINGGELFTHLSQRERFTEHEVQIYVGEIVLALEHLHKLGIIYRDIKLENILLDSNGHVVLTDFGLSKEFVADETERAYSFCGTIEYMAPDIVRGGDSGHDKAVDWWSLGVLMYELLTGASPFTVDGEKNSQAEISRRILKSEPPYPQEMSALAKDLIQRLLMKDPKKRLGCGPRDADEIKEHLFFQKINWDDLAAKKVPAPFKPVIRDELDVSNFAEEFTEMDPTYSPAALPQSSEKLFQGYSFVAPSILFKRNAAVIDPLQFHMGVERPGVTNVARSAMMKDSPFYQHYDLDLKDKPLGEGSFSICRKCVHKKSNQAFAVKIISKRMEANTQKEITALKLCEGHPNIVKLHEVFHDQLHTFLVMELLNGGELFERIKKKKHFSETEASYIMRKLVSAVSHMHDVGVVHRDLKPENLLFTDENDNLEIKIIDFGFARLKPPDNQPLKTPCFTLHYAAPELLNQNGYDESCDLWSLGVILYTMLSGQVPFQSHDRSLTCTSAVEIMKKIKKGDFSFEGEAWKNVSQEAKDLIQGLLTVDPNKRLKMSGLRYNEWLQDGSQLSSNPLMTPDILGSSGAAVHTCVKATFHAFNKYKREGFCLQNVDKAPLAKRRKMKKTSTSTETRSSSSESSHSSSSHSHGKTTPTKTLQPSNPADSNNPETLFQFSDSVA
Chain of UniProt Q9Y616 (whole entry, looked up): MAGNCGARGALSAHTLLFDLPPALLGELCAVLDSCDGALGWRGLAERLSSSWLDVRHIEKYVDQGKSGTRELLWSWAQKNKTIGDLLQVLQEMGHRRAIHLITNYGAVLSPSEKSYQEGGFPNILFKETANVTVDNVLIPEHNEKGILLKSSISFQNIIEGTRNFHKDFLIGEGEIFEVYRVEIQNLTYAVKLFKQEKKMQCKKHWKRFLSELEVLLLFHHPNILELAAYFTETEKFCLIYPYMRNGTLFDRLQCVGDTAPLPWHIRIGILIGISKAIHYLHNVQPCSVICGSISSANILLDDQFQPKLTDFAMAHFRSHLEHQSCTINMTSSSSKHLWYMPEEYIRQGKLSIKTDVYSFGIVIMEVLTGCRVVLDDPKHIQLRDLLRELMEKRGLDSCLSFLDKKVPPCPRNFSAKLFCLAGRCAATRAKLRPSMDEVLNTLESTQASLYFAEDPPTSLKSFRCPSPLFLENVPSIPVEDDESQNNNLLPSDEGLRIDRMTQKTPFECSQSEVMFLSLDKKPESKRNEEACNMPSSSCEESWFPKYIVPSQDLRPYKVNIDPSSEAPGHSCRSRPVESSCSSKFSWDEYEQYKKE

Block 1 — tested at: 0.1 µM
Structure (SMILES): Cn1nc(C(=O)NCc2ccc(C(=O)O)cc2)cc1-c1ccc2[nH]ccc2c1
target	assay	remaining binding [%]
MAP4K2 (Homo sapiens, UniProt Q12851)	cell-free assay, competition with immobilised ligand	85
STK25 (Homo sapiens, UniProt O00506)	cell-free assay, competition with immobilised ligand	91
FLT3 (Homo sapiens, UniProt P36888, D835V)	cell-free assay, competition with immobilised ligand	98
CAMK2D (Homo sapiens, UniProt Q13557)	cell-free assay, competition with immobilised ligand	83
CAMKK2 (Homo sapiens, UniProt Q96RR4)	cell-free assay, competition with immobilised ligand	80
ERBB2 (Homo sapiens, UniProt P04626)	cell-free assay, competition with immobilised ligand	92
Ribosomal protein S6 kinase alpha-5, C-terminal kinase domain (RPS6KA5, Homo sapiens, UniProt O75582)	cell-free assay, competition with immobilised ligand	100
CDK18 (Homo sapiens, UniProt Q07002)	cell-free assay, competition with immobilised ligand	97
Tyrosine-protein kinase ABL1, phosphorylated (ABL1, Homo sapiens, UniProt P00519, F317I)	binding	100
Aurora kinase C (AURKC, Homo sapiens, UniProt Q9UQB9)	cell-free assay, competition with immobilised ligand	76
ROCK2 (Homo sapiens, UniProt O75116)	cell-free assay, competition with immobilised ligand	82
CDKL1 (Homo sapiens, UniProt Q00532)	cell-free assay, competition with immobilised ligand	70
PIK3CD (Homo sapiens, UniProt O00329)	cell-free assay, competition with immobilised ligand	97
CSNK1E (Homo sapiens, UniProt P49674)	cell-free assay, competition with immobilised ligand	80
STK16 (Homo sapiens, UniProt O75716)	cell-free assay, competition with immobilised ligand	86
FLT3 (Homo sapiens, UniProt P36888, F691L/ITD)	cell-free assay, competition with immobilised ligand	66
PHKG2 (Homo sapiens, UniProt P15735)	cell-free assay, competition with immobilised ligand	86
IRAK3 (Homo sapiens, UniProt Q9Y616)	cell-free assay, competition with immobilised ligand	83
FER (Homo sapiens, UniProt P16591)	cell-free assay, competition with immobilised ligand	93
ULK1 (Homo sapiens, UniProt O75385)	cell-free assay, competition with immobilised ligand	83
EPHA8 (Homo sapiens, UniProt P29322)	cell-free assay, competition with immobilised ligand	92
MAP4K1 (Homo sapiens, UniProt Q92918)	cell-free assay, competition with immobilised ligand	97

Block 2 — observed: enzyme activity; action: inhibitor; tested at: 0.5 µM; relative to: control
Target: Tyrosine-protein kinase CSK (CSK, Homo sapiens, UniProt P41240)
Chain of UniProt P41240 (whole entry, looked up): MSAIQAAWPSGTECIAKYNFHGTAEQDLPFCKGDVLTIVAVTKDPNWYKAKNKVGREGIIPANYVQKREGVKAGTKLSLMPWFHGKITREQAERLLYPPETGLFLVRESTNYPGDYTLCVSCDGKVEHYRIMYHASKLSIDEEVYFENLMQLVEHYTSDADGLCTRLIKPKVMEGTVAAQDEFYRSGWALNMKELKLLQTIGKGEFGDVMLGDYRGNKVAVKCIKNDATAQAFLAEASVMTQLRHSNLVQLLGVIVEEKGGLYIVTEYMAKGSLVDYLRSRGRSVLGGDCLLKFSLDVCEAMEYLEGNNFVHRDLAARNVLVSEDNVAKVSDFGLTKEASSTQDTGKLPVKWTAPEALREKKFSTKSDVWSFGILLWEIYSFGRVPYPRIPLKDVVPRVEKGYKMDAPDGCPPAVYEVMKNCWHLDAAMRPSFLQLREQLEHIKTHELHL
SMILES	remaining activity [%]
COc1cc2c(cc1OC)-c1[nH]nc(Nc3cccc(F)c3)c1C2	44.9
COc1cc2ncnc(Nc3ccc(O)c(Br)c3)c2cc1OC	91.6
Cc1nc2cc3nc(-c4cccs4)cnc3cc2n1C	101
c1ccc(-c2[nH]ncc2-c2ccnc3ccccc23)nc1	102
Cc1cn(-c2cc(NC(=O)c3ccc(C)c(Nc4nccc(-c5cccnc5)n4)c3)cc(C(F)(F)F)c2)cn1	42.4
COc1cc2ncnc(Nc3cccc(Cl)c3)c2cc1OC	91.1
O=C(Nc1cccc(Nc2nccc(Nc3cccc(C(F)(F)F)c3)n2)c1)C1CC1	97.4
O=c1cc(-c2cccc3c2Sc2ccccc2S3)oc(N2CCOCC2)c1	95.7
CN(C)C[C@H]1CCn2c(c(C3=C(c4cn(C)c5ccccc45)C(=O)NC3=O)c3ccccc32)C1	104
N#Cc1c(NC(=O)c2cccc3ccccc23)sc2c1CCCC2	91.5

Block 3 — cell line: Huh-7; tested at: 10 µM; time: 24 h
Structure (SMILES)	viability [%]
COc1ccc(Cl)cc1C(=O)NCCc1ccc(S(=O)(=O)NC(=O)NC2CCCCC2)cc1	97.4
CCCc1nc2c(C)cc(-c3nc4ccccc4n3C)cc2n1Cc1ccc(-c2ccccc2C(=O)O)cc1	96.4
C#C[C@]1(O)CC[C@H]2[C@@H]3CCC4=CC(=O)CC[C@@H]4[C@H]3CC[C@@]21C	83.8
CCCN(CCC)S(=O)(=O)c1ccc(C(=O)O)cc1	101
Cc1cccc(C)c1NC(=O)C1CCCCN1C (stereo not shown)	99.9
CNCCc1ccccn1	104
C=C1CC[C@H](O)C/C1=C/C=C1\CCC[C@]2(C)[C@@H]([C@H](C)/C=C/[C@H](C)C(C)C)CC[C@@H]12	97
C#C[C@]1(O)CC[C@H]2[C@@H]3CCC4=C(CCC(=O)C4)[C@H]3CC[C@@]21C	79.5
N[C@@H](Cc1ccc(O)c(O)c1)C(=O)O	100

Block 4 — medium: plasma; route: oral
SMILES: COc1ccc(-c2c(Nc3ccccn3)[nH]c3c(C4=CCCCC4)c(-c4ccccc4)nn3c2=O)cc1
system	conditions	plasma concentration, geometric mean [ng/mL]
cancer patients	100 mg, 48 h post-dose, single dose	315
cancer patients	200 mg, 72 h post-dose, single dose	280
cancer patients	400 mg, 3 h post-dose, single dose	915
cancer patients	50 mg, 72 h post-dose, single dose	27.9
human patients	100 mg once daily, 0.5 h, cycle 1	2490
cancer patients	400 mg, 48 h post-dose, single dose	172
human patients	150 mg once daily, 0.5 h, cycle 1	3190
cancer patients	150 mg, 1 h post-dose, single dose	416

A few entries again (block 3):
Structure (SMILES)	viability [%]
CCCc1nc2c(C)cc(-c3nc4ccccc4n3C)cc2n1Cc1ccc(-c2ccccc2C(=O)O)cc1	96.4
N[C@@H](Cc1ccc(O)c(O)c1)C(=O)O	100
C=C1CC[C@H](O)C/C1=C/C=C1\CCC[C@]2(C)[C@@H]([C@H](C)/C=C/[C@H](C)C(C)C)CC[C@@H]12	97
COc1ccc(Cl)cc1C(=O)NCCc1ccc(S(=O)(=O)NC(=O)NC2CCCCC2)cc1	97.4
CCCN(CCC)S(=O)(=O)c1ccc(C(=O)O)cc1	101
Cc1cccc(C)c1NC(=O)C1CCCCN1C (stereo not shown)	99.9
CNCCc1ccccn1	104
